Published values collected from several papers.
Protocols differ between the studies behind these lines. Several values in a cell are separate wells, animals, samples, runs or records.
Target: MAP/microtubule affinity-regulating kinase 3 (MARK3, Homo sapiens, UniProt P27448)
Sequence (P27448 1-753, as in one of the studies): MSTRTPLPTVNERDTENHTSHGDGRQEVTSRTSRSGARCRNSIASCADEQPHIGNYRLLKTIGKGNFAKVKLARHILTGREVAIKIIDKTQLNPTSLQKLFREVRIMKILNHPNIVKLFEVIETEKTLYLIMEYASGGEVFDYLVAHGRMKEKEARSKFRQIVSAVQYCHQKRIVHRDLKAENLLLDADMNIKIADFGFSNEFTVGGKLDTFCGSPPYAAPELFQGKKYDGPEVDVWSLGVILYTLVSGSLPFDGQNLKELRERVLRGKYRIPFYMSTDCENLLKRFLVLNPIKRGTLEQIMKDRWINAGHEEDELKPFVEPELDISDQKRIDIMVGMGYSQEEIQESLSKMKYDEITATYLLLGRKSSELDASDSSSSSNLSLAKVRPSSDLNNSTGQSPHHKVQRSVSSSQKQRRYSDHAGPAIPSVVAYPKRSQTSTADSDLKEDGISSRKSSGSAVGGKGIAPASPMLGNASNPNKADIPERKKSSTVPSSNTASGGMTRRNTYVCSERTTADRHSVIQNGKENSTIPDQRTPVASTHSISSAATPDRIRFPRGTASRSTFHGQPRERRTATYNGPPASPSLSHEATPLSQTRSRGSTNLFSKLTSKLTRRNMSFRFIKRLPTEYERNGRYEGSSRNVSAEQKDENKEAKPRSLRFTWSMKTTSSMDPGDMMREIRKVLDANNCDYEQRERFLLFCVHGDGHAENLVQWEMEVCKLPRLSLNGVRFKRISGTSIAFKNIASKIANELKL

NC(=O)C[C@H]1CCc2sc3ncnc(O[C@H]4CC[C@H](N5CCOCC5)CC4)c3c21
inhibition (enzyme activity, inhibitor; 10 µM): 1%

CNS(=O)(=O)Nc1nccc(Cc2c(C)c3ccc(Oc4ncccc4F)cc3oc2=O)c1F
remaining binding (binding, competition with immobilised ligand; 10 µM): 89%

Cc1ccc(C)c(-c2ccc3nc(NC(=O)C4CCCCC4)nn3c2)c1
remaining activity (enzyme activity, Dundee kinase panel; 10 µM): 90%

Nc1ncc2c(n1)-c1c([nH]c3ccc(C4=CCOCC4)cc13)CCC2
remaining binding (binding, competition with immobilised ligand; 1 µM): 100%

C[C@H]1CN(C(=O)c2cn(-c3ccnc(N)n3)c3cc(C#CC4(O)CCCCC4)ccc23)CCN1
inhibition (enzyme activity, inhibitor, FRET; 1 µM): 75%

Cc1cccc(-c2ccc3nc(NC(=O)C4CCOCC4)nn3c2)c1
remaining activity (enzyme activity, Dundee kinase panel; 10 µM): 88%

CC(C)=CC1OC(C)(C)C2C=C3C(=O)C(Cl)=CC(O)C3C3C(O)C4OC4C(=O)C132 (centres unmarked)
remaining binding (cell-free assay, competition with immobilised ligand; 10 µM): 100%

CN1CCN(Cc2ccc(NC(=O)c3cccc(C#Cc4cnc(N)c5ncccc45)c3)cc2C(F)(F)F)CC1
remaining binding (cell-free assay, competition with immobilised ligand; 50 nM): 90%

Cc1cccc(O[C@H]2CCC[C@@H](C(C)CNCc3ccncc3)C2)c1 (relative stereo)
inhibition (enzyme activity, inhibitor; 1 µM): -4%

Nc1ncc(-c2cc(-c3cnn(CC(F)(F)F)c3)ncc2F)nc1C(=O)NC1CNCC(F)C1 (centres unmarked)
remaining activity (enzyme activity; 1 µM; baseline: DMSO control): 99%

C=C1CCCCCCCCCC(CO)C1=O (centres unmarked)
remaining binding (cell-free assay, competition with immobilised ligand; 10 µM): 100%

C=CC(=O)Nc1cccc(-c2cnc3[nH]cc(C(=O)NC(C)(C)C)c3n2)c1
inhibition (kinase activity; 0.1 µM): 51% and 44%

Cc1ccc(-c2c(/C=C(\C#N)C(=O)NC(C)C)n(CCCO)c3ncnc(N)c23)cc1
remaining binding (cell-free assay, competition with immobilised ligand; 1 µM): 100%

COc1cc(Nc2nccc(-c3cnn4nc(OC)ccc34)n2)cc(C(F)(F)F)c1
remaining binding (binding, competition with immobilised ligand; 1 µM): 86%

O=C(Cc1ccc(OCc2ccccc2)cc1)NC1(C(=O)O)CCN(C(=O)c2ccc(-c3cccc(Cl)c3)cc2)CC1
activity vs control (enzyme activity, inhibitor; 10 µM): 134%

CN1CCN(Cc2ccc(-c3ccc(CO[C@H]4CCC[C@@H]4NC(=O)c4cc(-c5cnn(C)c5)cnc4N)cc3)cc2)CC1
inhibition (enzyme activity, inhibitor; 0.1 µM): 4%

CNC(=O)C1CCN(c2cc(C)c(F)cc2NC(=O)c2ccc(-c3cc(O)ccc3C)c(C)c2)CC1
remaining binding (binding, competition with immobilised ligand; 1 µM): 79%

C=CC(=O)Nc1cc(-c2nn(C3CCN(CCNC(=O)[C@H](C)CCC45CC6CC(CC(C6)C4)C5)CC3)c3ncnc(N)c23)ccc1Oc1ccccc1
inhibition (inhibitor, KiNativ profiling; biochemical; 2 µM): 10.7%

CN1CC[C@@H](COc2cnc(C#N)cc2-c2ccn3nc(NC(=O)C4CC4)cc3c2)C1
inhibition (enzyme activity, inhibitor; 1 µM): 6%

COc1ccc(NC(=O)Nc2ccc3c(c2)C(=O)N(C(C)CO)CC(C)C(CN(C)Cc2ccc4c(c2)OCO4)O3)cc1 (centres unmarked)
remaining binding (binding, competition with immobilised ligand; 10 µM): 100%

A few entries again:
NC(=O)C[C@H]1CCc2sc3ncnc(O[C@H]4CC[C@H](N5CCOCC5)CC4)c3c21
inhibition (enzyme activity, inhibitor; 10 µM): 1%

CNS(=O)(=O)Nc1nccc(Cc2c(C)c3ccc(Oc4ncccc4F)cc3oc2=O)c1F
remaining binding (binding, competition with immobilised ligand; 10 µM): 89%
